Measurements collected from several papers.
Protocols differ between the studies behind these lines.
Route: oral

COC(=O)N[C@H](C(=O)N1CCC[C@H]1c1ncc(-c2cc(F)c3c(c2)O[C@@H](c2cnc(C4CC4)s2)n2c-3cc3cc(-c4cnc([C@@H]5CCCN5C(=O)[C@@H](NC(=O)OC)C(C)C)[nH]4)ccc32)[nH]1)C(C)C — participants with Headache (healthy adult humans; 180 mg, 6 days): 6.3%
CCCS(=O)(=O)N[C@H]1C[C@@H](N(C)c2ncnc3[nH]ccc23)C1 — participants with TEAEs (healthy human; dose not given, together with: rosuvastatin): 25%
O=C1CC[C@H](N2Cc3cc(N4CCN(CC5CCN(c6ccc([C@@H]7c8ccc(O)cc8CC[C@@H]7c7ccccc7)cc6)CC5)CC4)ccc3C2=O)C(=O)N1 — participants with TEAE hot flush (human; 200 mg, together with: dabigatran etexilate 75 mg): 0%
COC(=O)N[C@@H](C)CNc1nccc(-c2cn(C(C)C)nc2-c2cc(Cl)cc(NS(C)(=O)=O)c2F)n1 — participants with TEAEs (human; dose not given, alone or with diltiazem or posaconazole): 88%
COCCCOc1ccnc(C[S+]([O-])c2nc3ccccc3[nH]2)c1C (stereo not drawn) — participants with adverse events (healthy male humans; dose not given): 18.2%
C[C@H]1CN(C(=O)CC#N)[C@]12CCN(c1ncnc3[nH]ccc13)C2 — participants withdrawn due to AEs (human; 1.5 mg single dose): 0%
CC(C)c1nc(CN(C)C(=O)N[C@@H](CCN2CCOCC2)C(=O)N[C@H](CC[C@H](Cc2ccccc2)NC(=O)OCc2cncs2)Cc2ccccc2)cs1 — participants with Insomnia (human; dose not given): 0%
CCn1c(=O)c(-c2cc(NC(=O)Nc3ccccc3)c(F)cc2Br)cc2cnc(NC)cc21 — participants with drug-related TEAE (refers to: nervous system disorders; healthy human, matched to moderate hepatic impairment; 50 mg single dose): 0%
CC(C)c1nc(N(C)S(C)(=O)=O)nc(-c2ccc(F)cc2)c1/C=C/[C@@H](O)C[C@@H](O)CC(=O)O — participants with TEAEs (human; 10 mg, alone): 8.3%
C=CC(=O)NC1CCN(c2ncc3ncnc(Nc4ccc(Oc5ccc6c(c5)ncn6C)c(C)c4)c3n2)CC1 — participants with pain (human, male; 240 mg, treatment-emergent adverse event): 6.3%
O=C(COc1ccc(Cl)cc1)NC12CC(c3nnc([C@H]4C[C@@H](OC(F)(F)F)C4)o3)(C1)C2 — participants with TEAE (human both sexes; 200 mg once daily, 14 days): 71.4%
C[C@H]1O[C@@H](O[C@H]2[C@@H](O)C[C@H](O[C@H]3[C@@H](O)C[C@H](O[C@H]4CC[C@@]5(C)[C@H](CC[C@@H]6[C@@H]5C[C@@H](O)[C@]5(C)[C@@H](C7=CC(=O)OC7)CC[C@]65O)C4)O[C@@H]3C)O[C@@H]2C)C[C@H](O)[C@@H]1O — participants with TEAE (refers to: Dizziness; human; 0.25 mg): 3.4%
CCCCCCOC(=O)NC(=N)c1ccc(NCc2nc3cc(C(=O)N(CCC(=O)OCC)c4ccccn4)ccc3n2C)cc1 — participants with adverse event (refers to: Contusion; human; 75 mg, alone): 0%
CC(C)c1nc(N(C)S(C)(=O)=O)nc(-c2ccc(F)cc2)c1/C=C/[C@@H](O)C[C@@H](O)CC(=O)O — participants with drug-related TEAE (human; 10 mg): 0%
CN1C(=O)[C@@H](NC(=O)c2nnc(Cc3ccccc3)[nH]2)COc2cccnc21 — participants with any TEAE (phase I multiple ascending dose; human, male and female; 200 mg, 14 days): 25%

For quick reference, copied from above:
COCCCOc1ccnc(C[S+]([O-])c2nc3ccccc3[nH]2)c1C (stereo not drawn) — participants with adverse events (healthy male humans; dose not given): 18.2%
C[C@H]1O[C@@H](O[C@H]2[C@@H](O)C[C@H](O[C@H]3[C@@H](O)C[C@H](O[C@H]4CC[C@@]5(C)[C@H](CC[C@@H]6[C@@H]5C[C@@H](O)[C@]5(C)[C@@H](C7=CC(=O)OC7)CC[C@]65O)C4)O[C@@H]3C)O[C@@H]2C)C[C@H](O)[C@@H]1O — participants with TEAE (refers to: Dizziness; human; 0.25 mg): 3.4%
